# Published values from different studies.
# Compare with care: the assays were run in different laboratories. Numbers after ± are the reported error.
# Chain of UniProt P12004 (whole entry, looked up): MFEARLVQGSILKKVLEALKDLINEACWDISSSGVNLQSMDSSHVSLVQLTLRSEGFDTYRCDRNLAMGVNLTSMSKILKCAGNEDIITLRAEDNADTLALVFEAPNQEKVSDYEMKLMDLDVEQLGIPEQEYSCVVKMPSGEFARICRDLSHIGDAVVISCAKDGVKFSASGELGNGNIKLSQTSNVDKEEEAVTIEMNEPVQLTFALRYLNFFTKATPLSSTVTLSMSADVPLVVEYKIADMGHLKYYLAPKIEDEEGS
# Chain of UniProt Q9NZC7 (whole entry, looked up): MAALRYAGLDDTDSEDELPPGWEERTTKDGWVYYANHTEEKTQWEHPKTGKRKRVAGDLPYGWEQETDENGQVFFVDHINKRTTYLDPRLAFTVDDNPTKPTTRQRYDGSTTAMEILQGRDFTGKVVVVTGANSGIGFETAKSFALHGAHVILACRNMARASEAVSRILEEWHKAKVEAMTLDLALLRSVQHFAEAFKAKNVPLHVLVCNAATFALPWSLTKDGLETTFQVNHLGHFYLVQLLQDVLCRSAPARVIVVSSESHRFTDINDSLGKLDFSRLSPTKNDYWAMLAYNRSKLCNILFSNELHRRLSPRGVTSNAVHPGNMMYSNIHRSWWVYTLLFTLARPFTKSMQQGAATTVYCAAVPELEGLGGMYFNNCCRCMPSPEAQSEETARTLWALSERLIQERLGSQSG
# Chain of UniProt Q9UEF7 (whole entry, looked up): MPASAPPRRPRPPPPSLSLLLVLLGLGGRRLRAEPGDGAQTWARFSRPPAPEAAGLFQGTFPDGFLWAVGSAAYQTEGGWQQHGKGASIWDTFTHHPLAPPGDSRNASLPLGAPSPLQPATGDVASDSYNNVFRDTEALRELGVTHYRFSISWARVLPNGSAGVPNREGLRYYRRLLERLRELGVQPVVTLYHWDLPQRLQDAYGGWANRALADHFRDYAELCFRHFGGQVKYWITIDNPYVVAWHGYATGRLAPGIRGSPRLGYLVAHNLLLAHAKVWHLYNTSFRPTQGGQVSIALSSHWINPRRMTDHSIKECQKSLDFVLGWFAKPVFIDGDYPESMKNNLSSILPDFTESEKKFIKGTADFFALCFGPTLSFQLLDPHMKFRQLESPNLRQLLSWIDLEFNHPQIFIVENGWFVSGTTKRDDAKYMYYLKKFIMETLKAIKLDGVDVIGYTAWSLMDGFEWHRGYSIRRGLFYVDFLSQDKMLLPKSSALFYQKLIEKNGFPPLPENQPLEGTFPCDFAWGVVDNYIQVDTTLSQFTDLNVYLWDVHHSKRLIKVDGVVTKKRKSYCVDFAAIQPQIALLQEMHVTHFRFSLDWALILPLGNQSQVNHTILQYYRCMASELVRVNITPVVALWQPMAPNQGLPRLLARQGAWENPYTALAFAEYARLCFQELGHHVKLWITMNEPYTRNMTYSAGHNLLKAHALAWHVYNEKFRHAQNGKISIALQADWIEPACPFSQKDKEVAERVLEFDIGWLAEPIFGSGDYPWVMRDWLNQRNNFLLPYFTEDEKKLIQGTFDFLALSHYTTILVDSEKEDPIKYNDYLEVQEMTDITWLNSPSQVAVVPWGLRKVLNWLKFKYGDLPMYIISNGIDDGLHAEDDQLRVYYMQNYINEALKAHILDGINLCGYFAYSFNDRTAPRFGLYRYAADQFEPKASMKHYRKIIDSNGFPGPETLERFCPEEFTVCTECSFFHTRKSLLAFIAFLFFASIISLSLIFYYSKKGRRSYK
# Chain of UniProt P63104 (whole entry, looked up): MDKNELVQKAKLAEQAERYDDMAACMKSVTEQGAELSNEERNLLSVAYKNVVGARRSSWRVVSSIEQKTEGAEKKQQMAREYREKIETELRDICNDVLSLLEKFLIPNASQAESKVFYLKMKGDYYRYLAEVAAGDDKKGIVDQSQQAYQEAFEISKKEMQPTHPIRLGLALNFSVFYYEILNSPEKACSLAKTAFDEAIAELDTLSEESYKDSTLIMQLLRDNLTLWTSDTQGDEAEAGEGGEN
# Chain of UniProt P35269 (whole entry, looked up): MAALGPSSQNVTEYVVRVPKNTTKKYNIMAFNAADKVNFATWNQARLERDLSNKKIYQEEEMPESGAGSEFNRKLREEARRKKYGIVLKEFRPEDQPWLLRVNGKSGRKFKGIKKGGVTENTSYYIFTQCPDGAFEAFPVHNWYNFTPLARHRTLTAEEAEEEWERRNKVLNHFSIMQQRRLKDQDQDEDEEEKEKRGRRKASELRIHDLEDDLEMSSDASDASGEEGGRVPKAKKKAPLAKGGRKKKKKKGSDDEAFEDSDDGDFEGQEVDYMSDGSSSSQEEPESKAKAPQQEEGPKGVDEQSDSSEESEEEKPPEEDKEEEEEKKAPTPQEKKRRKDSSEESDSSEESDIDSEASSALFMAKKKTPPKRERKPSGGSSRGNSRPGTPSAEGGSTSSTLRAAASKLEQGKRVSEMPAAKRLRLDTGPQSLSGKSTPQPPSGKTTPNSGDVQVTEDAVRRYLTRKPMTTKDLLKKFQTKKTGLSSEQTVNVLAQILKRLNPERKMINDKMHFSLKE
# Chain of UniProt Q07741 (whole entry, looked up): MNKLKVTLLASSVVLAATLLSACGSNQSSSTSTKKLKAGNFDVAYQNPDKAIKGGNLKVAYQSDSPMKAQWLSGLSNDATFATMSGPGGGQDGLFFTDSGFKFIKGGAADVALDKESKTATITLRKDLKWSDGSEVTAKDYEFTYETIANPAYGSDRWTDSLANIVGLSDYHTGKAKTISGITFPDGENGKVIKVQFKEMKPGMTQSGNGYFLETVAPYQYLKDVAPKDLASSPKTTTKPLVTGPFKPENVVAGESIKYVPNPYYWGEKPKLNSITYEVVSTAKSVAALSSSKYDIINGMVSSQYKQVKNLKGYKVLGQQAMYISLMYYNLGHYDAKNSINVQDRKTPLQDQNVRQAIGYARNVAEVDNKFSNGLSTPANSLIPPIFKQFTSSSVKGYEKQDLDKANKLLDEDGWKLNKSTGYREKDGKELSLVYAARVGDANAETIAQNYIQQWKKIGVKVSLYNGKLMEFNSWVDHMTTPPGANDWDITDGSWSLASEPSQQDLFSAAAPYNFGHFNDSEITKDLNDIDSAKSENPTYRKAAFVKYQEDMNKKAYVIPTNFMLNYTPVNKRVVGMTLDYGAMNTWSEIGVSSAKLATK
# Chain of UniProt P42568 (whole entry, looked up): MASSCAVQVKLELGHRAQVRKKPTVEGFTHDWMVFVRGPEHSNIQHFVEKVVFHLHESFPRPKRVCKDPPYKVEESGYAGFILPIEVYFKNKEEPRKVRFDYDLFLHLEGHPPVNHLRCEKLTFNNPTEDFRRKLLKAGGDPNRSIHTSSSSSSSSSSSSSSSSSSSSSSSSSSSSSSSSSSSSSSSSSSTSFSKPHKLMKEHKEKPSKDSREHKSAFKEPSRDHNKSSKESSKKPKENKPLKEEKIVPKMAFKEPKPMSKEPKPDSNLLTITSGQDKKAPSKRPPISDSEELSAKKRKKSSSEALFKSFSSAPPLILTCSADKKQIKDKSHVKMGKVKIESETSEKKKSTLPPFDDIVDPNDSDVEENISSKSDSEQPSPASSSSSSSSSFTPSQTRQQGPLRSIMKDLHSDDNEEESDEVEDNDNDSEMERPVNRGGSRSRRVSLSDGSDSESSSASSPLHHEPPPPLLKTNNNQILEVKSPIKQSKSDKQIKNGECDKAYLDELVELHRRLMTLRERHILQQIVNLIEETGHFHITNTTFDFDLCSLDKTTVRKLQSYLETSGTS
# Chain of UniProt P05067 (whole entry, unmodified, looked up): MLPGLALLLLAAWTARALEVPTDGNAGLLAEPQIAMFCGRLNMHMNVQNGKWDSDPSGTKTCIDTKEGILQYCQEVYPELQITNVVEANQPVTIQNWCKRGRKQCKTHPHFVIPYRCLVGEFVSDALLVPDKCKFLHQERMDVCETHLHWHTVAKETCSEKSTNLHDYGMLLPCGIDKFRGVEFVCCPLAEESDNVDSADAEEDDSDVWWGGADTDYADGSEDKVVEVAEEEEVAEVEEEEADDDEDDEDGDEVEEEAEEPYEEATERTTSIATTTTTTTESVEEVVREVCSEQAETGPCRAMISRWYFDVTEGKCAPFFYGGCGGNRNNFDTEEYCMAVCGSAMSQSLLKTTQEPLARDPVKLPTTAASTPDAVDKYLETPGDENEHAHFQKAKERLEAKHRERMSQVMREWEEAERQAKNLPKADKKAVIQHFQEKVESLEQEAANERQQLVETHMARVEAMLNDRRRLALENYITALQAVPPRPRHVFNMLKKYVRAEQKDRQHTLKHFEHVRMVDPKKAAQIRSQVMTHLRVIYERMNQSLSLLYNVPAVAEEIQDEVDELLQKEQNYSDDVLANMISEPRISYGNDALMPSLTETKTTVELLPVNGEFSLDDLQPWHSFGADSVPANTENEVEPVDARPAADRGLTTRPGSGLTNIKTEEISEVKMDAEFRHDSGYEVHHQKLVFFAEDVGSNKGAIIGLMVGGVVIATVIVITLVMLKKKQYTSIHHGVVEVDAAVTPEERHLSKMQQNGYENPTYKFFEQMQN
Compound,target,test,system,conditions,Kd [µM]
N=C(N)Nc1ccc(-c2nc3ccc(-c4ccc5nc(-c6ccc(NC(=N)N)cc6)[nH]c5c4)cc3[nH]2)cc1,r(G4C2)8 RNA,"binding, microscale thermophoresis",,,> 5
CC(=O)NCC(=O)N[C@@H](CO)C(=O)NCC(=O)N[C@@H](COP(=O)(O)O)C(=O)N1CCC[C@H]1C(=O)N[C@@H](CO)C(=O)N[C@@H](C)C(=O)N[C@@H](C)C(=O)N[C@@H](C)C(=O)N[C@@H](CO)C(=O)N[C@@H](CO)C(=O)N[C@@H](CO)C(=O)N[C@@H](Cc1c[nH]c2ccccc12)C(=O)N[C@@H](Cc1c[nH]cn1)C(=O)N[C@@]1(C)CCCC=CCCC[C@@](C)(C(=O)N[C@@H](CCC(=O)O)C(=O)N[C@@H](CCC(=O)O)C(=O)NCC(=O)N[C@@H](CCC(N)=O)C(=O)N[C@@H](CC(C)C)C(=O)N[C@@H](Cc2ccc(O)cc2)C(=O)NCC(N)=O)NC(=O)[C@H]([C@@H](C)O)NC(=O)[C@H](Cc2ccccc2)NC(=O)[C@H](CC(C)C)NC1=O,"General transcription factor IIF subunit 1, C-terminal domain (Homo sapiens, UniProt P35269)",binding,,"pH 7.4, 298 K",105 ± 2
CC(=O)NC1C(OC2C(O)C(O)OC(CO)C2O)OC(CO)C(O)C1OC1OC(CO)C(O)C(OC2OC(CO)C(O)C(O)C2O)C1OC1OC(C)C(O)C(O)C1O (stereo not drawn),"sly (Streptococcus suis, UniProt Q55996)",binding,,,8.4
CC[C@H](C)[C@H](NC(=O)[C@H](CCC(N)=O)NC(=O)[C@H](CS)NC(=O)[C@H](CC(C)C)NC(=O)[C@H](CCC(=O)O)NC(=O)[C@H](CCC(=O)O)NC(=O)[C@H](CC(=O)O)NC(=O)[C@@H](NC(=O)[C@@H](NC(=O)[C@@H](NC(=O)[C@H](CC(=O)O)NC(=O)[C@H](Cc1ccccc1)NC(=O)[C@@H](NC(=O)[C@H](C)NC(=O)[C@H](CC(=O)O)NC(=O)[C@H](CC(=O)O)NC(=O)CCNC(=O)CCNC(=O)CCCC[C@@H]1SC[C@@H]2NC(=O)N[C@@H]21)C(C)C)[C@@H](C)CC)[C@@H](C)CC)[C@@H](C)O)C(=O)N[C@@H](CCC(N)=O)C(=O)N[C@@H](CCC(=O)O)C(=O)N[C@@H](Cc1c[nH]c2ccccc12)C(N)=O,"Gamma-aminobutyric acid receptor-associated protein (Homo sapiens, UniProt O95166)","binding, BLI",,pH 7.4,1.4
CC[C@H](C)[C@H](NC(=O)[C@H](CCC(=O)O)NC(=O)[C@H](CO)NC(=O)[C@H](CCCNC(=N)N)NC(=O)[C@H](CC(N)=O)NC(=O)[C@H](CO)NC(=O)[C@H](CC(=O)O)NC(=O)[C@@H](NC(=O)[C@H](CCCNC(=N)N)NC(=O)[C@H](C)NC(=O)[C@H](CCCNC(=N)N)NC(=O)[C@H](CO)NC(=O)[C@@H](NC(=O)[C@H](Cc1ccc(O)cc1)NC(=O)[C@@H](NC(=O)[C@@H]1CCCN1C(=O)[C@@H]1CCCN1C(=O)[C@@H]1CCCN1C(=O)[C@@H](NC(=O)[C@H](CC(N)=O)NC(=O)[C@H](Cc1ccccc1)NC(=O)[C@H](C)N)[C@@H](C)CC)[C@@H](C)CC)[C@@H](C)O)[C@@H](C)CC)C(=O)NCC(=O)N[C@@H](Cc1c[nH]cn1)C(=O)N[C@@H](CO)C(=O)N1CCC[C@H]1C(=O)N1CCC[C@H]1C(=O)N1CCC[C@H]1C(=O)N[C@@H](C)C(=O)N[C@@H](Cc1ccc(O)cc1)C(=O)N[C@H](C(=O)N1CCC[C@H]1C(=O)N[C@@H](CCSC)C(=O)N[C@@H](CO)C(=O)O)[C@@H](C)O,"WW domain-containing oxidoreductase, WW1-WW2 tandem domains (WWOX, Homo sapiens, UniProt Q9NZC7)",ITC,tandem WW1-WW2 domain,"pH 7.8, 20 °C, some values lower limits only",14 ± 2.6
N=C(N)NCCC[C@H](NC(=O)[C@H](Cc1ccccc1)NC(=O)[C@@H]1CCCN1C(=O)[C@H](CO)NC(=O)[C@H](Cc1ccccc1)NC(=O)CNC(=O)[C@@H]1CCCN1C(=O)[C@@H]1CCCN1C(=O)[C@H](CCCNC(=N)N)NS(=O)(=O)c1ccc(C2=c3cc4c5c(c3Oc3c2cc2c6c3CCCN6CCC2)CCC[N+]=5CCC4)c(S(=O)(=O)[O-])c1)C(=O)O,"Oligopeptide-binding protein OppA (oppA, Lactococcus lactis subsp. lactis, UniProt Q07741)","binding, fluorescence anisotropy",,"pH 6, 30 °C, with: dye-labelled peptide",45 ± 3
C[C@H](N)C(=O)N[C@@H](CCCNC(=N)N)C(=O)N[C@H](C(=O)N[C@@H](CCCC[N+](C)(C)C)C(=O)N[C@@H](CCC(N)=O)C(=O)N[C@H](C(=O)N[C@@H](C)C(=O)N[C@@H](CCCNC(=N)N)C(=O)N[C@@H](CCCCN)C(=O)N[C@@H](CO)C(=O)N[C@H](C(=O)NCC(=O)O)[C@@H](C)O)[C@@H](C)O)[C@@H](C)O,"Protein partner of snf, PHD domain (Drosophila melanogaster, UniProt Q9VG78)",intrinsic tryptophan fluorescence,,"pH 6.0, 25 °C, PHD finger",17
CC(=O)N[C@@H](CCCNC(=N)N)C(=O)N[C@H](C(=O)N[C@@H](CCCCN)C(=O)N[C@@H](CCC(N)=O)C(=O)N[C@H](C(=O)N[C@@H](C)C(=O)N[C@@H](CCCNC(=N)N)C(=O)N[C@@H](CCCCNC(=O)c1ccccc1)C(=O)N[C@@H](CO)C(=O)N[C@H](C(=O)NCC(=O)NCC(=O)N[C@@H](CCCCN)C(=O)N[C@@H](C)C(=O)N1CCC[C@H]1C(N)=O)[C@@H](C)O)[C@@H](C)O)[C@@H](C)O,"Protein AF-9 (Homo sapiens, UniProt P42568)","binding, ITC",,pH 7.5,5.97
CC(C)C[C@H](NC(=O)[C@@H]1CCCN1C(=O)[C@H](CC(=O)O)NC(=O)[C@H](CO)NC(=O)[C@H](C)NC(=O)c1cc(-c2ccccc2)nc2ccccc12)C(=O)NCC(=O)N[C@H](C(=O)N[C@H](C(=O)N[C@@H](CCCNC(=N)N)C(=O)NCC(=O)N[C@@H](CCCNC(=N)N)C(=O)N[C@@H](C)C(=O)N[C@@H](CCCNC(=N)N)C(=O)N[C@H](CCCNC(=O)c1ccc2c(c1)C(=O)OC21c2ccc(N(C)C)cc2Oc2cc(N(C)C)ccc21)C(N)=O)C(C)C)C(C)C,"Klotho (Homo sapiens, UniProt Q9UEF7)","binding, BLI competition",,,0.0016 ± 0.0004
CSCC[C@@H]1NC(=O)[C@H](CO)NC(=O)[C@@H](NC(=O)[C@H](CCC(N)=O)NC(=O)[C@H](CCCNC(=N)N)NC(C)=O)CSCCCCSC[C@@H](C(=O)N[C@@H](Cc2ccccc2)C(=O)N[C@@H](Cc2ccc(O)cc2)C(=O)N[C@@H](Cc2c[nH]cn2)C(=O)N[C@@H](CO)C(=O)N[C@@H](CCCCN)C(N)=O)NC(=O)[C@H]([C@@H](C)O)NC1=O,"PCNA (Homo sapiens, UniProt P12004)","binding, SPR",,,1.99
CC(C)C[C@H](NC(=O)[C@@H](N)Cc1ccccc1)C(=O)O,"Amyloid-beta precursor protein, amyloid-beta 1-40 Y10A (APP, Homo sapiens, UniProt P05067, Y681A)",,,concentration not given,135 ± 71.3
CC[C@H](C)[C@H](NC(=O)[C@H](CCCNC(=N)N)NC(=O)[C@H](CCCCN)NC(=O)[C@@H](NC(=O)[C@H](C)NC(=O)[C@H](CCCNC(=N)N)NC(=O)[C@H](CCC(N)=O)NC(=O)[C@H](CO)NC(=O)[C@H](CCCCN)NC(=O)[C@H](CC(N)=O)NC(=O)[C@@H](N)CCCNC(=N)N)[C@@H](C)O)C(=O)N[C@@H](CO)C(=O)N[C@@H](Cc1c[nH]cn1)C(=O)N[C@@H](CCSC)C(=O)N1CCC[C@H]1C(=O)N[C@@H](CO)C(=O)N[C@@H](CCCNC(=N)N)C(=O)N1CCC[C@H]1C(=O)N[C@@H](CCC(=O)O)C(=O)N[C@@H](CC(C)C)C(=O)N[C@@H](CO)C(=O)N[C@@H](C)C(=O)N[C@H](C(=O)N[C@@H](C)C(=O)N[C@H](C(=O)N[C@@H](CC(=O)O)C(=O)N[C@@H](CC(C)C)C(=O)N[C@@H](CCCNC(=N)N)C(=O)N[C@@H](CCCCN)C(=O)N[C@@H](CC(=O)O)C(=O)N[C@@H](CCCCN)C(=O)N[C@@H](C)C(=O)N[C@@H](CCCCN)C(=O)N[C@@H](COP(=O)(O)O)C(=O)N[C@@H](CSC/C=C(\C)CC/C=C(\C)CCC=C(C)C)C(=O)OC)[C@@H](C)O)C(C)C,"YWHAZ (Homo sapiens, UniProt P63104)","cell-free assay, FP",,pH 7.5,0.32

# Repeated from above:
Compound,target,test,system,conditions,Kd [µM]
N=C(N)NCCC[C@H](NC(=O)[C@H](Cc1ccccc1)NC(=O)[C@@H]1CCCN1C(=O)[C@H](CO)NC(=O)[C@H](Cc1ccccc1)NC(=O)CNC(=O)[C@@H]1CCCN1C(=O)[C@@H]1CCCN1C(=O)[C@H](CCCNC(=N)N)NS(=O)(=O)c1ccc(C2=c3cc4c5c(c3Oc3c2cc2c6c3CCCN6CCC2)CCC[N+]=5CCC4)c(S(=O)(=O)[O-])c1)C(=O)O,"Oligopeptide-binding protein OppA (oppA, Lactococcus lactis subsp. lactis, UniProt Q07741)","binding, fluorescence anisotropy",,"pH 6, 30 °C, with: dye-labelled peptide",45 ± 3
